Measurements collected from several papers.
Lines come from different studies, so protocols differ. Numbers after ± are the reported error.

The AUC(0-inf) of `N[C@@H](CC(=O)N1CCc2c(nc(C(F)(F)F)nc2C(F)(F)F)C1)CN1CC(F)(F)CCC1=O` is reported as 1390 ± 268 ng·h/mL (healthy Korean adults, fasted, plasma; oral, 50 mg single dose, separate tablets, added: enavogliflozin 0.3 mg).
`CC(C)c1nc(N(C)S(C)(=O)=O)nc(-c2ccc(F)cc2)c1/C=C/[C@@H](O)C[C@@H](O)CC(=O)O` gave an AUC(0-inf) of 106 ng·h/mL (healthy volunteers, plasma; oral, 10 mg, day 8, BCRP probe, added: momelotinib, days 4-8, 200 mg, once daily).
For `CC(=O)N[C@H]1CC[C@H](NC(=O)CN2CCN(c3nncc(-c4ccc(C)cc4)n3)CC2)CC1`, the AUC(0-inf) was 4780 ng·h/mL (men aged ≥65 years, plasma; oral, 100 mg single dose, fasted).
For `CS(=O)(=O)c1ccc([C@@H](O)[C@@H](CF)NC(=O)C(Cl)Cl)cc1`, the AUC(0-inf) was 45100 ± 1320 ng·h/mL (Arbor Acres chickens, plasma; oral, 20 mg/kg, added: quercetin 40 mg/kg pretreatment).
The AUC(0-inf) of `Cc1c(C(=O)O)ccc2c3n(nc12)[C@@H]1[C@H](C3)N(CC2CC2)[C@@]2(C(=O)Nc3cc(Cl)ccc32)[C@H]1c1cccc(Cl)c1F` is reported as 173 µM·h (cancer patients, plasma; oral, 45 mg every 3 weeks, geometric mean).
With `C[C@@H](N)C1CCN(S(=O)(=O)c2cccc3cnccc23)CC1` the AUC(0-inf) was 3.81 ng·h/mL (healthy volunteers, fasted, plasma; oral, 25 mg).
`Oc1ccc([C@@H](O)c2cc(-c3ncnc4cc(N5CCOCC5)ccc34)c(F)cc2Cl)nn1` gave an AUC(0-inf) of 439 ng·h/mL (geometric mean; healthy volunteers, plasma; oral, 100 mg, fasted tablet).
The AUC(0-inf) of `COc1ccc2[nH]c([S+]([O-])Cc3ncc(C)c(OC)c3C)nc2c1` (centres unmarked) is reported as 3880 ± 1320 ng·h/mL (healthy Chinese volunteers, plasma; oral, 20 mg, enteric-coated capsules, CYP2C19 poor metabolizers).
For `CCCCCCCCCCCCCCCC(=O)N[C@@H](CCC(=O)NCCCC[C@@H]1NC(=O)[C@H]([C@@H](C)CC)NC(=O)[C@@H](NC(=O)[C@@H]2CCCN2C(=O)[C@H](Cc2ccccc2)NC(=O)[C@H](Cc2c[nH]cn2)NC(=O)[C@@H](NC(=O)[C@H](CC(=O)O)NC(=O)CC(C)C)[C@@H](C)O)CSSC[C@@H](C(=O)N[C@@H](CCCCN)C(N)=O)NC(=O)CNC(=O)[C@H](CCCCN)NC(=O)[C@H](CO)NC(=O)[C@H](CCCNC(=N)N)NC(=O)[C@@H]2CCCN2C(=O)[C@H](CCC(=O)O)NC(=O)[C@H](Cc2ccccc2)NC1=O)C(=O)O`, the AUC(0-inf) was 47000 ± 18200 ng·h/mL (healthy volunteers, plasma; subcutaneous, 60 mg single, lyophilised formulation).
For `CCCCC[C@H](O)CC[C@@H]1[C@H]2Cc3cccc(OCC(=O)O)c3C[C@H]2C[C@H]1O`, the AUC(0-inf) was 0.69 ± 0.15 ng·h/mL (healthy Japanese adults, plasma; inhaled, 36 µg single dose, scaled by body weight/60 kg).
`CC[C@H](C)CCCCC(=O)N[C@@H](CCN)C(=O)N[C@H](C(=O)N[C@@H](CCN)C(=O)N[C@H]1CCNC(=O)[C@H]([C@@H](C)O)NC(=O)[C@H](CCN)NC(=O)[C@H](CCN)NC(=O)[C@H](CC(C)C)NC(=O)[C@@H](Cc2ccccc2)NC(=O)[C@H](CCN)NC1=O)[C@@H](C)O` gave an AUC(0-inf) of 32300 ng·h/mL (ESKD on long-term intermittent haemodialysis, plasma; intravenous infusion, 0.75 mg/kg single dose over 1 h, arithmetic mean).
`C[C@H]1CN(C(=O)CC#N)[C@]12CCN(c1ncnc3[nH]ccc13)C2` gave an AUC(0-inf) of 1820 ng·h/mL (healthy Japanese males, plasma; oral, 50 mg single dose).
The AUC(0-inf) of `CCc1nc2c(C)cc(N3CCN(CC(=O)N4CC(O)C4)CC3)cn2c1N(C)c1nc(-c2ccc(F)cc2)c(C#N)s1` is reported as 54600 ng·h/mL (healthy volunteers, plasma; oral, 600 mg once daily multiple doses).
`COc1cc(C(=O)NC2CCN(C)CC2)c(F)cc1Nc1ncc(C(F)(F)F)c(Oc2cccc3c2C(=O)N(C)C3)n1` gave an AUC(0-inf) of 23 µM·h (cancer patients, plasma; oral, 100 mg single dose, cycle 1 day 1, geometric mean).
`CS(=O)(=O)n1cc2c(n1)CN([C@H]1CO[C@H](c3cc(F)ccc3F)[C@@H](N)C1)C2` has an AUC(0-inf) of 10.1 µM·h (healthy Japanese men, plasma; oral, 10 mg, fed, single dose).
With `C=CC(=O)NC1CCN(c2ncc3ncnc(Nc4ccc(Oc5ccc6c(c5)ncn6C)c(C)c4)c3n2)CC1` the AUC(0-inf) was 0.00362 µM·h (item: total radioactivity; healthy male volunteers, plasma; intravenous, 100 µg, 14C microtracer, geometric mean).
`O=C(c1cccnc1-c1ccncc1)N1CCC(O)(Cc2ccccc2)CC1` has an AUC(0-inf) of 720 ng·h/mL (healthy Japanese adults, plasma; oral, 200 mg single dose).
`Cn1cncc1[C@@](N)(c1ccc(Cl)cc1)c1ccc2c(c1)c(-c1cccc(Cl)c1)cc(=O)n2C` gave an AUC(0-inf) of 4830 ng·h/mL (paediatric leukaemia patients; oral, 200 mg/m2, first dose, cycle 1, median).
`OC[C@H]1O[C@@H](c2cc(Cc3ccc(C4CC4)cc3)c(Cl)c3c2CCO3)[C@H](O)[C@@H](O)[C@@H]1O` gave an AUC(0-inf) of 36.1 ± 10.2 ng·h/mL (healthy Korean adults, fasted, plasma; oral, 0.3 mg single dose, separate tablets, added: co-administered drug 50 mg).
The AUC(0-inf) of `CCCS(=O)(=O)N[C@H]1C[C@@H](N(C)c2ncnc3[nH]ccc23)C1` is reported as 1580 ng·h/mL (healthy volunteers, plasma, total; oral, 100 mg single dose, alone).

Repeated from above:
The AUC(0-inf) of `N[C@@H](CC(=O)N1CCc2c(nc(C(F)(F)F)nc2C(F)(F)F)C1)CN1CC(F)(F)CCC1=O` is reported as 1390 ± 268 ng·h/mL (healthy Korean adults, fasted, plasma; oral, 50 mg single dose, separate tablets, added: enavogliflozin 0.3 mg).
